Measured values collected from several papers.
Every numbered part comes from another study and shows a few of its results, in no order. Substitutions count along the parent as printed.

Block 1 — technique: protein binding microarray; form: double-stranded DNA, one strand shown; matrix: in vitro; tested at: not given; reference: not given; reading: higher = stronger binding
Target: Histone acetyltransferase KAT6A, winged helix 2, GST fusion (KAT6A, Homo sapiens, UniProt Q92794, residues 85-181)
Setting: 8-mer, flanks averaged, mean of 2 arrays, mostly near background
Construct (chain): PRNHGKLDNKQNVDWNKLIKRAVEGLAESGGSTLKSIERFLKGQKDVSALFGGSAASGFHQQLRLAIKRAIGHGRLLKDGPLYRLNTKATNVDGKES
Strand	E-score
AAGTGGTC	0.055
GAAGACGA	0.109
ATCGCTTG	-0.0303
ATAGATGG	-0.163
CATTAATG	0.0247
GACGTAAA	0.0158
CTGGTGGC	0.0691
AGTAAGGA	-0.114
CCTTACTA	-0.0171
ATCCTCAC	0.0109
ACCTCGCG	0.00527
TGAAAAAA	0.208
GCTCTACC	-0.105
CCCAAGCC	0.0392
CGCGATCC	0.0894
ATTACCCG	-0.0362

Block 2 — technique: DHFR PCA, deep sequencing; matrix: yeast; added: (+)-ABA 710 µM; reference: wild-type fitted maximum; reading: higher = stronger binding
Target: ABI1, truncated, D143A, DHFR fusion (Arabidopsis thaliana)
Setting: methotrexate growth selection, single substitutions
Starting sequence: PYL1, truncated, DHFR fusion (Arabidopsis thaliana); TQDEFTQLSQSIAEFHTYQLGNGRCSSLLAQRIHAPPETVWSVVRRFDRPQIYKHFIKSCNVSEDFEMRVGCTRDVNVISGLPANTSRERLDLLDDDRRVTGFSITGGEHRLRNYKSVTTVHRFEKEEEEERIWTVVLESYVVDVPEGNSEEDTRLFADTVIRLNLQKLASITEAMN; partner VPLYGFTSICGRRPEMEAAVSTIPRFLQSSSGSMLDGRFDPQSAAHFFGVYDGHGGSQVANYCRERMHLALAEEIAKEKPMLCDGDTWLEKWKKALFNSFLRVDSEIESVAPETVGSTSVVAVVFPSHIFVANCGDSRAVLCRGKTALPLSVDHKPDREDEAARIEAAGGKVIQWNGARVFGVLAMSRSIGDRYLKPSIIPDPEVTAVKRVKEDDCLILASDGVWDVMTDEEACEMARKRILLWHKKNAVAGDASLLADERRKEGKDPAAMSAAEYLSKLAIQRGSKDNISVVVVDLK
Substitution	relative binding score
R98Y	92.7%
E109C	101%
Y115G	-0.282%
R69A	101%
N149M	55.2%
D159H	70.3%
S104L	63.1%
Y115M	73.5%
L28Y	84.7%
E139H	93.5%
R132H	110%
S9H	84.4%
E14V	88.7%

Block 3 — target: UBE2Q2 UBC core domain (UniProt Q8WVN8); technique: yeast two-hybrid; matrix: yeast; setting: mostly zero background; reference: not given; reading: higher = stronger interaction
Sequence of UniProt Q8WVN8 (whole entry, looked up): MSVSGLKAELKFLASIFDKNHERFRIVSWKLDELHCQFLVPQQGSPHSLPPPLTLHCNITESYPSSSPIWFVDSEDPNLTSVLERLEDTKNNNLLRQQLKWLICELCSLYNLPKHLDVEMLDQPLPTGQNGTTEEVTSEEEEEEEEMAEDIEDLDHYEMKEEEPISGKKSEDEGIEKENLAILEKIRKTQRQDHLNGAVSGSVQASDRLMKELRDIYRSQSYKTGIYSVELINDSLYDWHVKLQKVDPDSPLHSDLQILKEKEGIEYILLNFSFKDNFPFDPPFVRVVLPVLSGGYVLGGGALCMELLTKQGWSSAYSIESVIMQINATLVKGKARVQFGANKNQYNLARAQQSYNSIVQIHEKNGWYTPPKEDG
B1: VPS41 RING domain (UniProt P49754); chain KGVLVDEENICESCLSPILPSDAAKPFSVVVFHCRHMFHKECLPMPSMNSAAQFCNICSAKNRGPGSAI
B2: RNF38 RING domain (UniProt Q9H0F5); chain PNNHQSEQTLCVVCMCDFESRQLLRVLPCNHEFHAKCVDKWLKANRTCPICRADASEVHRDS
B3: TRIM4 RING domain (UniProt Q9C037); chain EAEDIQEELTCPICLDYFQDPVSIECGHNFCRGCLHRNWAPGGGPFPCPECRHPSAPAALRP
B4: NEURL1 RING domain (UniProt O76050); chain VTPGLGQWSDECTICYEHAVDTVIYTCGHMCLCYACGLRLKKALHACCPICRRPIKDIIKT
B5: RNF208 RING domain (UniProt Q9H0X6); chain SSAAAGEPLECPTCGHSYNVTQRRPRVLSCLHSVCEQCLQILYESCPKYKFISCPTCRRETVLFTDYG
B6: TRIM43 RING domain (UniProt Q96BQ3); chain FSHAFQKELTCVICLNYLVDPVTICCGHSFCRPCLCLSWEEAQSPANCPACREPSPKMDFKT
B7: RNF111 RING domain (UniProt Q6ZNA4); chain EGTEEDTEEKCTICLSILEEGEDVRRLPCMHLFHQVCVDQWLITNKKCPICRVDIEAQLPSE
B8: DTX4 RING domain (UniProt Q9Y2E6); chain QKVRHPPDEDCTICMERLTAPSGYKGPQPTVKPDLVGKLSRCGHVYHIYCLVAMYNNGNKDGSLQCPTCKTIYGVKTGTQ
Molecule	lacZ reporter activity
FQGDVDEDLICPICSGVLEEPVQAPHCEHAFCNACITQWFSQQQTCPVDRSVVTVAHLRP (RNF41 RING domain (UniProt Q9H4P4))	0
B1 (VPS41 RING domain)	0
B2 (RNF38 RING domain)	0
PAELEVQASECVVCLEREAQMIFLNCGHVCCCQQCCQPLRTCPLCRQDIAQRLRIY (LRSAM1 RING domain (UniProt Q6UWE0))	0
B3 (TRIM4 RING domain)	0
B4 (NEURL1 RING domain)	0
B5 (RNF208 RING domain)	0
B6 (TRIM43 RING domain)	0
B7 (RNF111 RING domain)	0
VEPSEENSKDCVVCQNGTVNWVLLPCRHTCLCDGCVKYFQQCPMCRQFVQESFALC (CGRRF1 RING domain (UniProt Q99675))	0
B8 (DTX4 RING domain)	0

Block 4 — target: CCNB1, cyclin fold, Cln2 fusion (human); technique: yeast growth competition, sequencing; matrix: yeast; setting: strong parent motif; reference: not given; reading: higher = stronger binding
Starting sequence: RBL2 docking peptide (human); STTRRRLFVENDS
Substitution	normalised enrichment score
STTRNRLFVENDS [R5N]	0.174
SNTRRRLFVENDS [T2N]	0.821
STTRRRDFVENDS [L7D]	0.61
STTRRRLFMENDS [V9M]	0.708
STTRRRLRVENDS [F8R]	-0.027
STTRRRLFVENRS [D12R]	0.907
STTRRRLFVEVDS [N11V]	1.07
STTRLRLFVENDS [R5L]	0.671
STTRRRLFVENTS [D12T]	0.0423
STTDRRLFVENDS [R4D]	-0.424
STTRRRLFVEFDS [N11F]	0.96
SITRRRLFVENDS [T2I]	0.595
STTRRRMFVENDS [L7M]	0.801
STTRRCLFVENDS [R6C]	0.993
STTRRRLFVENYS [D12Y]	1
STTRRRLFVGNDS [E10G]	0.18
STTRRILFVENDS [R6I]	0.347
SQTRRRLFVENDS [T2Q]	1.34
STTRRRLIVENDS [F8I]	0.359
STERRRLFVENDS [T3E]	0.0071
STTRRPLFVENDS [R6P]	0.0262
STTRFRLFVENDS [R5F]	0.175
STTHRRLFVENDS [R4H]	0.169
MTTRRRLFVENDS [S1M]	0.918
STTRRRLFVENDH [S13H]	0.764

Block 5 — target: JUNB, bZIP domain (human); technique: DHFR protein complementation; matrix: yeast; reference: wild-type JUN-FOS pair; reading: higher = stronger binding
Setting: single substitutions, most at no-binding floor
Starting sequence: JUN, bZIP domain (human); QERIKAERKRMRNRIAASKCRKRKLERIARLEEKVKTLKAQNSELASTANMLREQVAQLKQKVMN; partner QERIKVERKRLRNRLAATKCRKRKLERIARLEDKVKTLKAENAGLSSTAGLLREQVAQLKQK
Substitution	binding fitness [natural log]
N42Y	-1.53
V56E	-1.42
V56S	-1.51
L45H	-1.47
M51C	-1.27
K36P	-1.44
L31I	-1.24
A29T	-1.24
V56T	-1.53
E54V	-1.34
Q41P	-1.36
L45P	-1.46
K36I	-1.32
Q55T	-1.39
E32W	-1.51
K39P	-1.53
K34P	-1.53
A46E	-0.947
T48A	-1.13
